Results from different studies.
Parts stem from different laboratories: compare values within a part only. Positions count from the first letter of the parent shown.

Study 1 — method: RNA Bind-n-Seq; molecule type: RNA; sample: in vitro; concentration: 365 nM; reference: no-protein control; reading: higher = stronger binding
Target: RNA binding protein fox-1 homolog 2, RRM domain, GST-SBP tag (RBFOX2, Homo sapiens, UniProt O43251-10, residues 100-194)
Notes: natural RNA segment, single round, ends assumed
All sequences stand within: GGGAGUUCUACAGUCCGACGAUC … UGGAAUUCUCGGGUGCCAA
Residues (chain): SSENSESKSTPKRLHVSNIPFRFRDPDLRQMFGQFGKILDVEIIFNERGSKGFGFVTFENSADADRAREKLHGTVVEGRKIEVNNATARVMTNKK
Oligonucleotide	RBNS enrichment (R)
UUGUUGGGAGUGCUUUAUUUUUUAAAAGCAAACCUAAAUGAAACUAUUUUUCCCCUUAAAAUAGGAGAGAGCCAAAAUUGACCAAGGGUAUUCUGCAGCGAACCGGAGAC	0.398
UUUUAAAAGAAGGAAAUUAAGACAUGAUUUUUCUCUAGAUUUUCUUCACUUCAGUCUUUCUACUAACCUCGUAAAAACCAUGGCUUCCAUUUGCUUUAUUUGUGCAAAUG	0.493
GGCCACUUCUCUGAAGGAGGGCUGGGUUCUGGGCCUGUAUCGAAUAAACACAAACCUGGAUGGCGCAGUGGUCGCAGUGGCUUCAGACCCUCCUUGUCUGCCCCUCCCCU	0.195
CUGAUAAAAACACAGCUCCUUUAUUAUGCUGCUUUUCUUGUUCACUUUACACACUAAGUAAACACUUAUUGUCAGGUGCCUAGUCUUGAGUGAAUUGUUAGAUGUGCACU	0.647
AGCUCUUGGGUUAAAUGGUUUGUUAUGAGCAGGCUUUCCAUUACUCAUUGUUCUGCGAUUUAUUUUAGAGAUUGUCCAUGAGCACUGAACAAGGAGAAGAAGUUUCUUGU	0.555
ACAGAACAAAGCCAUUCACAAGUGACCGACAGCACGUGCCGUGAGACGGGAGGUGGCUGCAGGAAGAGGAUGCCUCAGGGAUGCCGGACAUUUCCGUGUUCUAUUCCAGA	0.5
AUCACAUGUCUAACUGGCUCACCACAUAGUGUGCUUUGAUUGUAUUUUGGCUUUGACUCUGCCAUUUCUGAAAUGUGGGGGAGGAUGGAGGCAGCUGACCUCUCCAGUUG	0.568
AGUAUGUAAAUAAUUGACAUUGGUGUUAACACGACUGUCGGGGAUUCACUGAAAUCCACAUGAUUCAGUUCUAGCUCUGGAUUACCUCAGUUGACCUUUGUGGAGGUUUU	0.538
GUAUCUUCUAGCACCAACUGCUGUAAAGCAAUGCUGCAAAUAAUGCUUGAAUACAAGUGGCUAAGCCAACAACAGAAUAAAUACUUUUAUAGUAGUUUUAUAAUCCUGAA	0.92
UGUUGGUAGCCCCCAAGUGGCGUGCAGUGACACCAGUAUCUUCUCUGUUGCAUUUUUGCAAUCUUGUGUCCCGCUCGGUGAUGUUCUACAAACUCUGUUUUAAGGUUGAG	0.227
ACCCCCGUGAGACCUCAGCAGGACACUGACCACUGAGGACCAGUCAUCAUGACACAGCAAGCCGUGACCCCUCUGUCUGCUGUACUGGCCCAGCCUCCUGCUCGCACCUC	0.547
CCAGGAGUGAAGGCAGAUUUAGGGAAAUAAACAUUGUGUGUUAAAUCUUUUACUGACCUGGGUUUUCUCCUGGUUUACGUCUGUCUUUUGUAAAUCAAUAAUUACAAGGA	0.384

Study 2 — method: protein binding microarray; molecule type: double-stranded DNA, one strand shown; sample: in vitro; concentration: not given; reference: not given; reading: higher = stronger binding
Target: Histone acetyltransferase KAT6A, both winged helices, GST fusion (KAT6A, Homo sapiens, UniProt Q92794, residues 1-181)
Notes: 8-mer, flanks averaged, mean of 2 arrays, mostly near background
Residues (chain): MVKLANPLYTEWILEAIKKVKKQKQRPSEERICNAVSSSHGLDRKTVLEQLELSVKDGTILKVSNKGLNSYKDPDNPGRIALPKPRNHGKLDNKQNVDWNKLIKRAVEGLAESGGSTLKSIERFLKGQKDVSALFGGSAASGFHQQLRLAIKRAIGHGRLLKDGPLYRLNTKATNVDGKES
Oligonucleotide	E-score
ACCAATTA	-0.124
ACCTCCCT	-0.233
AATTTAAT	0.0446
GATGAAGC	-0.0939
AGACTTGC	-0.088
AATGACAC	-0.092
TCGGTTAA	0.134
ACCAATGC	-0.0123
ACTTACAT	-0.1
AGAAGAGG	-0.0398
CCTTCTTC	-0.125
ACACTGGA	-0.102
TTCAACAA	-0.0608
GATACTAC	0.0842
CAGAGAGC	-0.121
TACTGAAA	-0.0428
ACGTCAAT	-0.0766
CCCTCAAA	-0.0757
CGACCGCG	0.366
AGTGGGTG	-0.248
ATTAAGGA	-0.0348
ATTCCGTA	0.202
GCACATGC	-0.00012
CCTTAGCG	0.166
AGTTGGGG	-0.244

Study 3 — method: DHFR PCA, deep sequencing; sample: yeast; with: (+)-ABA 1.4 µM; reference: wild-type fitted maximum; reading: higher = stronger binding
Target: ABI1, truncated, D143A, DHFR fusion (Arabidopsis thaliana)
Notes: methotrexate growth selection, single substitutions
Starting sequence: PYL1, truncated, DHFR fusion (Arabidopsis thaliana); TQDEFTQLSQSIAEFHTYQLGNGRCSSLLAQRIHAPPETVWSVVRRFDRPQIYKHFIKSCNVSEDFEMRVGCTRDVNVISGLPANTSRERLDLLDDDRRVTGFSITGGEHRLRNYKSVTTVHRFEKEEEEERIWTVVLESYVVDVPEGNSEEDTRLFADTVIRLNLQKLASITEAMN; partner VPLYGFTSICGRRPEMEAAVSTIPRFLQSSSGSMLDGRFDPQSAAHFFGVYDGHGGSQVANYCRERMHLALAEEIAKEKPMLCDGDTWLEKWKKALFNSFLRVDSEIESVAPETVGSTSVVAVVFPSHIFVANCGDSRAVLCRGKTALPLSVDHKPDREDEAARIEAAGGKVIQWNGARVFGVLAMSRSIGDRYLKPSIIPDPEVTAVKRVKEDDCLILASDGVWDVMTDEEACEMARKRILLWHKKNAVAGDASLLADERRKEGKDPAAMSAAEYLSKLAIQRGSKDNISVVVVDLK
Change	relative binding score
E4Y	27.1%
P36M	31.5%
R123K	83.5%
S104R	1.9%
Q10C	49.2%
F15P	-11.2%
F47M	1.04%
M68I	56%
A13I	26.3%
R46P	-1.38%
D3Y	27.2%
L156K	-8.5%
E174D	1.17%
I33G	9.05%
R88N	32.5%
V44W	-11.9%
D48C	-3.72%
D97R	42.8%
R98T	13.2%
E127C	52.9%
C72E	43.2%
S63A	68.5%
D95G	-2.88%
V40F	-37.6%

Study 4 — method: universal PBM; molecule type: double-stranded DNA, one strand shown; sample: in vitro; concentration: 600 nM; reading: higher = stronger binding
Target: Sal-like protein 4, full length isoform A (SALL4, Homo sapiens, UniProt Q9UJQ4, residues 1-1053)
Chain of UniProt Q9UJQ4 (whole entry, looked up): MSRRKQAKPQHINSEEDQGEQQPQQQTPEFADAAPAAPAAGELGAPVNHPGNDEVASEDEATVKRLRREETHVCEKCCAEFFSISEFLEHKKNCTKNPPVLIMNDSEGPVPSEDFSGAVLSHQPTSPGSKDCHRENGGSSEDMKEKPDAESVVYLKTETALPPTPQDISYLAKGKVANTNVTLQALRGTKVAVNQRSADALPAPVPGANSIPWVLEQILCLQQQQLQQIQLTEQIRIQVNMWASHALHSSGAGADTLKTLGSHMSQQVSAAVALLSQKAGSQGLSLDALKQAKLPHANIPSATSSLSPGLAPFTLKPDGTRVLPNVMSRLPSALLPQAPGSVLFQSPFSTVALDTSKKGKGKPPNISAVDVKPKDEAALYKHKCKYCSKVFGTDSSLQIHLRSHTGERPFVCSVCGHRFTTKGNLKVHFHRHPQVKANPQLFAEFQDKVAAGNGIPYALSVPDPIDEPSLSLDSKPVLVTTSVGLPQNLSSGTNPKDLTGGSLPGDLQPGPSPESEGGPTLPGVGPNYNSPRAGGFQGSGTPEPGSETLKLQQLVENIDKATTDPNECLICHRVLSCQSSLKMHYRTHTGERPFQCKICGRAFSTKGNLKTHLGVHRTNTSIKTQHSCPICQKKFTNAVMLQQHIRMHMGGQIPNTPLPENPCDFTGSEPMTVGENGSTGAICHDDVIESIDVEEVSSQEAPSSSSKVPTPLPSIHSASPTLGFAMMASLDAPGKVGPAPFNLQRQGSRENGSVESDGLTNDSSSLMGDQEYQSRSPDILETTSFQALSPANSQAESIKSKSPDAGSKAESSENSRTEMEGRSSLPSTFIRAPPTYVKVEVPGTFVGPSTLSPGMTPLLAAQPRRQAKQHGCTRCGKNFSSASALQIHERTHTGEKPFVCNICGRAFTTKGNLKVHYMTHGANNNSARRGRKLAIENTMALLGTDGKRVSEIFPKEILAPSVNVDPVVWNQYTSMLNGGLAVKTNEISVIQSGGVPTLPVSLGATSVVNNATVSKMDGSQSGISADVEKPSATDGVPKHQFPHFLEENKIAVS
Notes: 8-mer, flanks averaged, mean of replicates
Oligonucleotide	E-score
AGTTACAC	0.165
CGTATCCC	-0.157
AACCGAAC	-0.242
AGCCAAAA	0.113
AAATAGTG	0.252
CCTCGACA	-0.0389
TCCATTAA	0.251
GTTAAACA	0.223
AACACAGT	0.0921
GGGATAAA	0.148
TGCGCCAA	0.00929
CATTATGG	0.153
AGATGTTA	0.164
ACGAATCT	0.0843
ATCATTCA	0.267
AGTCCTTA	0.0787
CATTGATA	0.143
CAAATTAC	0.177
GAGCTAAC	-0.0127
CACCATTC	-0.00408
AAATCGAG	0.0984
CTCGCAGA	-0.204
GATCCGCA	-0.286
TGCATAAA	0.33
CAAGGCCG	-0.271

Study 5 — target: CCND3, cyclin fold, Cln2 fusion (human); method: yeast growth competition, sequencing; sample: yeast; notes: weak parent motif; reference: not given; reading: higher = stronger binding
Starting sequence: EXO1 docking peptide (human); KPECGRVQRAIFQ; partner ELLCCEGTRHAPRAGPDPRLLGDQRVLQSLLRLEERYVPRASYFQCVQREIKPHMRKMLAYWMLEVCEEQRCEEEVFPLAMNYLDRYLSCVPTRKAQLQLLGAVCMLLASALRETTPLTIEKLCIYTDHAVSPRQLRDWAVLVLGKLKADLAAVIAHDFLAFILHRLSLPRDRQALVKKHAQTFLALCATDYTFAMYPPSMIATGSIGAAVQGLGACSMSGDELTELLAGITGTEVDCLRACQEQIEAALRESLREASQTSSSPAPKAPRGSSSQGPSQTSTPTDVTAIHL
Change	normalised enrichment score
R9A	0.0167
Q8A	0.144
I11A	-0.0608
P2A	0.605
R6A	0.0696
V7A	0.296

Study 6 — target: CEP164, C-terminal peptide (human); method: DHFR complementation, deep sequencing; sample: yeast; reference: wild type; reading: higher = weaker binding
Notes: single substitutions, model-inferred values
Starting sequence: PDZK1, PDZ domain 2 (human); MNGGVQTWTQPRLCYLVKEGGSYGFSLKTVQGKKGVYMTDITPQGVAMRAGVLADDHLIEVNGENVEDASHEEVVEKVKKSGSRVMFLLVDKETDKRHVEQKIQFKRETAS; partner HNRVKVYRF
Change	binding free energy change [kcal/mol]
V90D	-0.0436
M48V	0.477
V66T	0.902
I103S	-0.115
E60I	0.351
E67A	0.19
K28R	0.0668
F105Y	-0.217
E19R	-0.0671
L13V	-0.04
V85D	2.24
N2S	-0.131
M38H	1.35
V52L	1.12
H71E	0.929
E64K	0.138
E67H	0.463
S81K	0.865
M48S	-0.0882
T42L	0.0977

Study 7 — target: JUN, bZIP domain (human); method: DHFR protein complementation; sample: yeast; reference: wild-type JUN-FOS pair; reading: higher = stronger binding
Notes: single substitutions, most at no-binding floor
Starting sequence: JUN, bZIP domain (human); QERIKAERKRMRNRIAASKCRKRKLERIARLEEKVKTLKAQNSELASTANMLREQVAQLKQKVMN; partner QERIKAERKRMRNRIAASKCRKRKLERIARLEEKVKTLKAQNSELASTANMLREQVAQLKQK
Change	binding fitness [natural log]
T37H	-0.0919
E44I	-0.298
E33K	-0.351
Q55V	-0.564
M51Y	-0.205
L38C	-1.04
K39H	-0.328
E33H	-0.447
E33W	-0.523
A57C	-0.566
A40I	-0.303
A40V	-0.34
Q41A	-0.273
Q58A	-0.175
I28W	-0.951
L45D	-1.04
E54S	-0.527
A40W	-0.685

Further values, each from its own experiment
Molecule	target	assay	system	conditions	how to read	quantity	value
PhoQ, residues 284 288 289 292 302 303 AGCYAI	PhoP, residues 12 14 15 18 19 VQALL (Escherichia coli, UniProt P23836)	Sort-seq, refers to: YFP reporter	E. coli	PhoQ-PhoP variant library, with: 10 µM Mg2+	reference: high Mg2+ state, higher = stronger signaling	fold induction	24.2
